Results pooled from the literature.
Numbers after ± are the reported error.
blaNDM-1: Metallo-beta-lactamase type 2 (blaNDM-1, Klebsiella pneumoniae, UniProt C7C422)
Chain of UniProt C7C422 (whole entry, looked up): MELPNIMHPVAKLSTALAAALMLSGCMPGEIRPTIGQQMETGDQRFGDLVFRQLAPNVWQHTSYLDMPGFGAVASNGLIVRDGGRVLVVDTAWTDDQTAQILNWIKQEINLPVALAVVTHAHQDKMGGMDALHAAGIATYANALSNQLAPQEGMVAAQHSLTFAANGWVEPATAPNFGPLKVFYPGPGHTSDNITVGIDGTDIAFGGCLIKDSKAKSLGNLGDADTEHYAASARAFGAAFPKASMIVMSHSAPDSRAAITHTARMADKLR
MCA2: Metacaspase-2 (MCA2, Trypanosoma brucei brucei, UniProt Q585F3)
Chain of UniProt Q585F3 (whole entry, looked up): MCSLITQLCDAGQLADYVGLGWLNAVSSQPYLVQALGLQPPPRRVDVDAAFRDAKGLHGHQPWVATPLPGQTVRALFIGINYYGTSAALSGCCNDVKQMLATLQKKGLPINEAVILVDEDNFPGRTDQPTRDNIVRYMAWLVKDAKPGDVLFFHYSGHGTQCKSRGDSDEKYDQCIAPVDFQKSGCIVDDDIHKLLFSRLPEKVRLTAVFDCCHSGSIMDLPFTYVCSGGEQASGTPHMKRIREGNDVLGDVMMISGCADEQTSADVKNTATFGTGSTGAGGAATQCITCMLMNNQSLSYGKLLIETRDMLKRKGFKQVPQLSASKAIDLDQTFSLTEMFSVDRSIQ
Chain of UniProt Q2FDS6 (whole entry, looked up): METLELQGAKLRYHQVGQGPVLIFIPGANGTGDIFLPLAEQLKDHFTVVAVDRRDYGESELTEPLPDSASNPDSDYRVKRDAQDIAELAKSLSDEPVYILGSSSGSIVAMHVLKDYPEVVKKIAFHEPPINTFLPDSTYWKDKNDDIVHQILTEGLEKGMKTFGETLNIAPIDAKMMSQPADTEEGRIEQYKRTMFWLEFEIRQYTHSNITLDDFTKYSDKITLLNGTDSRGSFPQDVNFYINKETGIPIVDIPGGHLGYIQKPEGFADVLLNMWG
Chain of UniProt Q10713 (whole entry, unmodified, looked up): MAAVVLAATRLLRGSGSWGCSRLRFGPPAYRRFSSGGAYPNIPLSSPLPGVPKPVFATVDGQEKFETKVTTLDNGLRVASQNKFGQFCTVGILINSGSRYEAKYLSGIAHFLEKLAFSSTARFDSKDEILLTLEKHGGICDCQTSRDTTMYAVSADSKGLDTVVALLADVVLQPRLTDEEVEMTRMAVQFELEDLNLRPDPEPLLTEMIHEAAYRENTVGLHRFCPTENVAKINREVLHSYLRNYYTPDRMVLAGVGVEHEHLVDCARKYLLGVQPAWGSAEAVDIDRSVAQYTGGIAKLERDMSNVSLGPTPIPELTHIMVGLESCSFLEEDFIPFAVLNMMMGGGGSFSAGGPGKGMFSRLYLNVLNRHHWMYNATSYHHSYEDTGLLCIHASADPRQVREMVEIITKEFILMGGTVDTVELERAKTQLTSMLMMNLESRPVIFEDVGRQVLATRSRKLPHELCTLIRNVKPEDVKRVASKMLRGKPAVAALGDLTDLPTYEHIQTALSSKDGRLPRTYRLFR
Chain of UniProt P08913 (whole entry, looked up): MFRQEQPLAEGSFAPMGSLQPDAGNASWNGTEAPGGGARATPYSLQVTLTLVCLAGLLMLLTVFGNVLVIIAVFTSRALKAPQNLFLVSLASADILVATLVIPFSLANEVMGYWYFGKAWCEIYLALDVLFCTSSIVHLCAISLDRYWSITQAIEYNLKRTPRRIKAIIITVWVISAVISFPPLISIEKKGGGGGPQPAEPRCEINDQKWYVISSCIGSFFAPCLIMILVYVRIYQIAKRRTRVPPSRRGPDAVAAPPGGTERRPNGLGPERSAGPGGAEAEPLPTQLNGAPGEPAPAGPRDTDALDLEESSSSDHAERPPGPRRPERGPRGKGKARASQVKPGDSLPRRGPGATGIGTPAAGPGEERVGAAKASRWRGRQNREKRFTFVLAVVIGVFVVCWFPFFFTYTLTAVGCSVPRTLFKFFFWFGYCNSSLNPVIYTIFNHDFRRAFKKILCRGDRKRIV
Chain of UniProt P15090 (whole entry, looked up): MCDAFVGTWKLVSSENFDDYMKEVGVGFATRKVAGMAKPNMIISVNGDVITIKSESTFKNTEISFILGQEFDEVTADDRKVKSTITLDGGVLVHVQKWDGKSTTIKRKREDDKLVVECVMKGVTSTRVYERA
Chain of UniProt O75439 (whole entry, unmodified, looked up): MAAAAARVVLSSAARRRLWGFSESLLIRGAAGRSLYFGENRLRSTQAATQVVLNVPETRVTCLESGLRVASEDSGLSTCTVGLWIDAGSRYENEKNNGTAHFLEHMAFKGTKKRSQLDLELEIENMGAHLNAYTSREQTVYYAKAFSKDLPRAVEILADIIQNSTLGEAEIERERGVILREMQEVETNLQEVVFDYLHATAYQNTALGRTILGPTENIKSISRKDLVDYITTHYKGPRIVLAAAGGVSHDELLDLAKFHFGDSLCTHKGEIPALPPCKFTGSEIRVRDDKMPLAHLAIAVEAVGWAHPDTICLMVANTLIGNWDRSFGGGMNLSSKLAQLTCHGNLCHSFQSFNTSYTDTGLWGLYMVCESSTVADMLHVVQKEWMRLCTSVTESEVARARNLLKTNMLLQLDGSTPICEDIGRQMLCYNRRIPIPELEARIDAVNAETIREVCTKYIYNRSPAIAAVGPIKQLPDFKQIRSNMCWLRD
Chain of UniProt P31652 (whole entry, looked up): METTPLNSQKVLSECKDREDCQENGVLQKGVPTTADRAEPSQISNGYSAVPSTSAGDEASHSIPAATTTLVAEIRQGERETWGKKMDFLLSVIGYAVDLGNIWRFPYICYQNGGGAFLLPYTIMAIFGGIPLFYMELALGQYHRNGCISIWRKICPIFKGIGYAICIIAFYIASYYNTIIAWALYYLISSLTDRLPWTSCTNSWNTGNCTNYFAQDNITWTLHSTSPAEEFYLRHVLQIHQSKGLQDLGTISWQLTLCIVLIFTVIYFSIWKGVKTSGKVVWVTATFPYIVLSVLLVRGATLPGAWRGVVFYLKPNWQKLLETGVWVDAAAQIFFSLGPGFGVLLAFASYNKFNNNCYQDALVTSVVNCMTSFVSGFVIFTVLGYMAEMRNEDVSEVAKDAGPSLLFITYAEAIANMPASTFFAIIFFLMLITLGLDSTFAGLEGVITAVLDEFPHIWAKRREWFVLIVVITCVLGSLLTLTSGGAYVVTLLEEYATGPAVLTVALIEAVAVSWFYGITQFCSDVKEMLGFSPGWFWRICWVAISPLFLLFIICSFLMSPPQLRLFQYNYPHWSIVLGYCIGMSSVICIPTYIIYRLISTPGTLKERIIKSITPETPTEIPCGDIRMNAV
Chain of UniProt P33535 (whole entry, looked up): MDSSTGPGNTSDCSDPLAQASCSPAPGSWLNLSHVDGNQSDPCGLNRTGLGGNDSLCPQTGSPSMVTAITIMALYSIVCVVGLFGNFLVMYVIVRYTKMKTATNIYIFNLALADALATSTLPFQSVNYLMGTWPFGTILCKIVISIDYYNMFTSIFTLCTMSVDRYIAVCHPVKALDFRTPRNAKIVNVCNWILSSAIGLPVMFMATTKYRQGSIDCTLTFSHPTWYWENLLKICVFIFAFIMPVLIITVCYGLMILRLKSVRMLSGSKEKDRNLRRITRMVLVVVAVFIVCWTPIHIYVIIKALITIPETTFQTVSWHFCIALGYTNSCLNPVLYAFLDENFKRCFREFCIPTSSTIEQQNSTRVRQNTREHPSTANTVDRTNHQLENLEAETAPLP

SMILES	target	test	system	setting	Ki [nM]
Cc1ccc(OS(=O)(=O)F)c(C(=O)Nc2ccncc2)c1	Uncharacterized hydrolase SAUSA300_2518 (Staphylococcus aureus, UniProt Q2FDS6)	enzyme activity, inhibitor			2340
CC1(C)NC(=O)[C@@H](CCC(=O)O)NC(=O)[C@H](CCC(=O)O)NC(=O)[C@H](CCCN)NC(=O)[C@H](C(c2ccccc2)c2ccccc2)NC(=O)[C@@H]2CCCN2C(=O)[C@H]2CCCN2C(=O)[C@H](CC(N)=O)NC1=O	blaNDM-1	enzyme activity, inhibitor		together with: nitrocefin 1.5 µM	98100
C[C@H](NC(=O)[C@H](CCCCN)NC(=O)c1ccccc1N)C(=O)N[C@@H](CCCNC(=N)N)C(=O)N[C@@H](Cc1ccccc1)C(=O)N[C@@H](CO)C(=O)N[C@@H](C)C(=O)N[C@@H](CCC(N)=O)C(=O)NCCNc1ccc([N+](=O)[O-])cc1[N+](=O)[O-]	MCA2	enzyme activity, competitive inhibitor	Trypanosoma brucei	together with: Z-FR-AMC substrate	3900
CC(C)C[C@H](NC(=O)[C@H](CCCCN)NC(=O)[C@H](CCCCN)NC(=O)Cc1cccc(CNC(=O)CCNC(=N)N)c1)B(O)O	Genome polyprotein, NS2B-NS3 protease (ZIKV, UniProt A0A024B7W1)	inhibitor	Zika virus		18.4 ± 4
CC[C@H](C)[C@H](NC(=O)[C@H](CO)NC(=O)[C@H](CO)NC(=O)[C@H](CCCNC(=N)N)NC(=O)[C@H](C)NC(=O)[C@H](CCCCN)NC(=O)c1ccccc1N)C(=O)N[C@@H](CCC(N)=O)C(=O)NCCNc1ccc([N+](=O)[O-])cc1[N+](=O)[O-]	MCA2	substrate		pH 7.4, 25 °C, together with: 1 mM CaCl2	500
O=C(O)C(F)(OC(F)(F)C(F)(F)C(F)(F)F)C(F)(F)F (centres unmarked)	Fatty acid-binding protein, adipocyte (FABP4, Homo sapiens, UniProt P15090)	ligand displacement, fluorescence			19500
Cc1cc(N2CC3CC2CN3)nc2cc(Cl)ccc12 (centres unmarked)	Sodium-dependent serotonin transporter (Slc6a4, Rattus norvegicus, UniProt P31652)	ligand displacement, radioligand			152
CC[C@H](C)[C@@H]1NC(=O)[C@@H]2CCCN2C(=O)[C@@H](CS)NC(=O)[C@H](CC(C)C)NC(=O)[C@@H](CCCNC(=N)N)NC(=O)[C@@H]([C@H](C)O)NC(=O)[C@H](CCC(=O)O)NC(=O)[C@@H]2CCCN2C1=O	blaNDM-1	enzyme activity, inhibitor		together with: nitrocefin 1.5 µM	8100
COc1cc2c(cc1O)C(CCc1ccc(Cl)cc1)N(C)CC2 (centres unmarked)	Alpha-2A adrenergic receptor (ADRA2A, Homo sapiens, UniProt P08913)	cell-free assay, radioligand			340
CSCC[C@H](N)C(=O)N[C@@H](C)C(=O)N[C@H](C(=O)N[C@@H](CCCNC(=N)N)C(=O)N[C@@H](CCC(N)=O)C(=O)N[C@@H](C)C(=O)N[C@@H](CC(C)C)C(=O)NCC(=O)N[C@@H](CCCNC(=N)N)C(=O)NCC(=O)N[C@@H](CC(C)C)C(=O)N[C@@H](CCC(N)=O)C(=O)N[C@@H](CC(C)C)C(=O)NCC(=O)N[C@@H](CCCNC(=N)N)C(=O)N[C@@H](C)C(=O)N[C@@H](CC(C)C)C(=O)N[C@@H](CC(C)C)C(=O)N[C@@H](CC(C)C)C(=O)N[C@@H](CCCNC(=N)N)C(=O)N[C@@H](Cc1ccccc1)C(=O)N[C@H](C(=O)NCC(=O)N[C@@H](CCCCN)C(=O)N1CCC[C@H]1C(=O)NCC(=O)N[C@@H](CCCNC(=N)N)C(=O)N[C@@H](C)C(=O)N[C@@H](Cc1ccc(O)cc1)C(=O)NCC(=O)N[C@@H](CC(C)C)C(=O)NCC(=O)N[C@@H](CCCNC(=N)N)C(=O)N1CCC[C@H]1C(=O)NCC(=O)N1CCC[C@H]1C(=O)N[C@@H](C)C(=O)N[C@@H](C)C(=O)NCC(=O)N[C@@H](CS)C(=O)N[C@H](C(=O)N[C@@H](CCCNC(=N)N)C(=O)NCC(=O)N[C@@H](CCC(=O)O)C(=O)N[C@@H](CCCNC(=N)N)C(N)=O)C(C)C)[C@@H](C)O)C(C)C	PMPCB/PMPCA (Homo sapiens, UniProt O75439+Q10713)	inhibitor, LC-MS		room temperature, together with: MDH2 1-24 peptide substrate	26.6 ± 4.7
Cc1cc(O)cc(C)c1C[C@H](N)C(=O)N[C@H](CCCNC(=N)N)C(=O)N[C@@H](Cc1ccccc1)C(=O)N[C@@H](CCCCN)C(=O)N[C@@H]1CCCC[C@H]1NC(=O)[C@H](Cc1ccccc1)NC(=O)[C@H](CC1CCCCC1)NC[C@@H]1Cc2ccccc2CN1C(=O)[C@@H](N)Cc1ccc(O)cc1	Mu-type opioid receptor (Oprm1, Rattus norvegicus, UniProt P33535)	ligand displacement, radioligand		cell membranes	89.4

For quick reference, copied from above:
SMILES	target	test	system	setting	Ki [nM]
Cc1cc(N2CC3CC2CN3)nc2cc(Cl)ccc12 (centres unmarked)	Sodium-dependent serotonin transporter (Slc6a4, Rattus norvegicus, UniProt P31652)	ligand displacement, radioligand			152
